Assay results pooled from the literature.
Values joined by “and” are separate records of one study, mostly repeats; a detail may differ. ± marks the error that the study gave.

C[C@@H](O[C@H]1OCCN(Cc2n[nH]c(=O)[nH]2)[C@H]1c1ccc(F)cc1)c1cc(C(F)(F)F)cc(C(F)(F)F)c1 — IC50 (Human immunodeficiency virus 1; viral replication; PBMC, subtype C isolate, R5, NSI): 5330 nM
CC[C@@]1(O)C(=O)OCc2c1cc1n(c2=O)Cc2cc3cc(O)ccc3nc2-1 — IC50 (Bovine alphaherpesvirus 1; viral replication; MDBK): 41 nM
C[C@H]1CN(c2n[nH]c3nc(N[C@H]4CC[C@H](NS(=O)(=O)CCC(F)(F)F)CC4)ncc23)CCO1 — relative abundance (Paxillin (PXN, Homo sapiens, UniProt P49023); competitor, Kinobeads competition, refers to: PXN; human cell extract; 0.16 µM; relative to: vehicle): 0.97
C[C@@H]1C[C@@]2(NCCS2)[C@]2(O)O[C@@H]3C[C@@]4(C=O)[C@@H](CC[C@@H]5[C@@H]4CC[C@]4(C)[C@@H](C6=CC(=O)OC6)CC[C@]54O)C[C@H]3O[C@@H]2O1 — IC50 (Schistosoma mansoni; viability, microscopic viability score; adult worms; 72 h): 140 nM
CO[C@H]1C[C@H](O[C@H]2CC[C@@]3(C)[C@H](CC[C@@H]4[C@@H]3CC[C@]3(C)[C@@H](C5=CC(=O)OC5)[C@@H](OC(C)=O)C[C@]43O)C2)O[C@@H](C)[C@@H]1O — IC50 (Bovine alphaherpesvirus 1; viral replication; MDBK): 110 nM
COc1ccc(C[C@H](NC(=O)[C@H](C)NC(=O)CN2CCOCC2)C(=O)N[C@@H](Cc2ccccc2)C(=O)C2(C)CO2)cc1 (stereo in doubt) — IC50 (Plasmodium falciparum; parasite growth; Dd2, chloroquine resistant; 72 h, ring stage): 5.1 nM and < 10 nM
COc1ccc(C[C@H]2NC[C@H](O)[C@H]2OC(C)=O)cc1 — IC50 (Trichomonas gallinae; trophozoite viability, CCK-8; 24 h): 959 nM
CC[C@H](C)[C@H](NC(=O)[C@H](Cc1ccccc1)NC(=O)[C@H](CCC(=O)O)NC(=O)[C@H](CCCNC(=N)N)NC(=O)[C@H](C)NC(=O)[C@H](C)NC(=O)[C@H](CCC(N)=O)NC(=O)[C@H](CCC(=O)O)NC(=O)[C@H](CCC(=O)O)NC(=O)[C@H](CC(C)C)NC(=O)[C@H](Cc1ccc(O)cc1)NC(=O)[C@H](CO)NC(=O)[C@H](CO)NC(=O)[C@@H](NC(=O)[C@H](CC(=O)O)NC(=O)[C@H](CO)NC(=O)[C@@H](NC(=O)[C@H](Cc1ccccc1)NC(=O)[C@@H](NC(=O)CNC(=O)[C@H](CCC(=O)O)NC(=O)[C@H](C)NC(=O)CCc1c[nH]cn1)[C@@H](C)O)[C@@H](C)O)C(C)C)C(=O)N[C@@H](C)C(=O)N[C@@H](Cc1c[nH]c2ccccc12)C(=O)N[C@@H](CC(C)C)C(=O)N[C@H](C(=O)N[C@@H](CCCNC(=N)N)C(=O)NCC(=O)N[C@@H](CCCNC(=N)N)C(=O)N[C@@H](CCCCNC(=O)COCCOCCNC(=O)COCCOCCNC(=O)CC[C@H](NC(=O)CCCCCCCCCCCCCCCCC(=O)O)C(=O)O)C(=O)NCC(=O)NCC(=O)N[C@@H](CO)C(=O)N[C@@H](CCCCNc1c(NCCCCCN(O)C(=O)CCC(=O)NCCCCCN(O)C(=O)CCC(=O)NCCCCCN(O)C(C)=O)c(=O)c1=O)C(=O)O)C(C)C [zirconium-89 labelled] — tissue uptake (rat, spleen; iv, 3 nmol/kg, 24 h, ex vivo): 0.49 %ID/g
CC(/N=N/c1ccc(F)cc1)=C1SCCCS1 — IC50 (Schistosoma mansoni; viability, microscopic scoring; adult worms): 5060 nM
COc1c(CCC[P+](c2ccccc2)(c2ccccc2)c2ccccc2)cc2c(c1OC)OCO2.[I-] — LC50 (SF-295; SRB): -4.29 log M
Nc1nc2c(ncn2COCCO)c(=O)[nH]1 — IC50 (Herpes simplex virus 2; viral replication, RT-qPCR; Vero, compound-resistant): 81700 ± 2810 nM
C[C@]12CC[C@H](O)C[C@H]1CC[C@@H]1[C@@H]2CC[C@]2(C)[C@@H](c3ccc(=O)oc3)C[C@H]3O[C@]132 — IC50 (Bovine alphaherpesvirus 1; viral replication; MDBK): 2500 nM
CC[C@H](C)[C@@H]1NC(=O)[C@@H]2CCCN2C(=O)[C@H](CC(C)C)NC(=O)[C@H](CC(C)C)NC(=O)CNC(=O)[C@@H](NC(=O)[C@@H](NC(=O)[C@H](CC(=O)O)NC(=O)CNC(=O)[C@@H](NC(=O)[C@H](C)NC(=O)CNC(=O)[C@H](CCCCN)NC(=O)[C@H](CC(C)C)NC(=O)[C@H](CC(C)C)NC(=O)[C@H](CCCCN)NC(=O)CNC(=O)[C@@H](NC(=O)[C@@H](N)CC(C)C)C(C)C)C(C)C)C(C)C)CSSC[C@@H](C(=O)O)NC1=O — log2 fold change (RNA-seq, refers to: P2ry2 mRNA; mouse traumatic brain injury, frontal cortex and hippocampus; dose not given; relative to: TBI plus compound vs TBI): -2.31

Excerpt of the above:
CC[C@H](C)[C@H](NC(=O)[C@H](Cc1ccccc1)NC(=O)[C@H](CCC(=O)O)NC(=O)[C@H](CCCNC(=N)N)NC(=O)[C@H](C)NC(=O)[C@H](C)NC(=O)[C@H](CCC(N)=O)NC(=O)[C@H](CCC(=O)O)NC(=O)[C@H](CCC(=O)O)NC(=O)[C@H](CC(C)C)NC(=O)[C@H](Cc1ccc(O)cc1)NC(=O)[C@H](CO)NC(=O)[C@H](CO)NC(=O)[C@@H](NC(=O)[C@H](CC(=O)O)NC(=O)[C@H](CO)NC(=O)[C@@H](NC(=O)[C@H](Cc1ccccc1)NC(=O)[C@@H](NC(=O)CNC(=O)[C@H](CCC(=O)O)NC(=O)[C@H](C)NC(=O)CCc1c[nH]cn1)[C@@H](C)O)[C@@H](C)O)C(C)C)C(=O)N[C@@H](C)C(=O)N[C@@H](Cc1c[nH]c2ccccc12)C(=O)N[C@@H](CC(C)C)C(=O)N[C@H](C(=O)N[C@@H](CCCNC(=N)N)C(=O)NCC(=O)N[C@@H](CCCNC(=N)N)C(=O)N[C@@H](CCCCNC(=O)COCCOCCNC(=O)COCCOCCNC(=O)CC[C@H](NC(=O)CCCCCCCCCCCCCCCCC(=O)O)C(=O)O)C(=O)NCC(=O)NCC(=O)N[C@@H](CO)C(=O)N[C@@H](CCCCNc1c(NCCCCCN(O)C(=O)CCC(=O)NCCCCCN(O)C(=O)CCC(=O)NCCCCCN(O)C(C)=O)c(=O)c1=O)C(=O)O)C(C)C [zirconium-89 labelled] — tissue uptake (rat, spleen; iv, 3 nmol/kg, 24 h, ex vivo): 0.49 %ID/g
